Assay results gathered from unrelated publications.
Each numbered part is a random draw from the data of one study; scales do not carry over between parts.

Sample 1
Target: Centromere-binding protein 1, full length, His-tagged (CBF1, Saccharomyces cerevisiae, UniProt P17106, residues 1-351)
Chain of UniProt P17106 (whole entry, looked up): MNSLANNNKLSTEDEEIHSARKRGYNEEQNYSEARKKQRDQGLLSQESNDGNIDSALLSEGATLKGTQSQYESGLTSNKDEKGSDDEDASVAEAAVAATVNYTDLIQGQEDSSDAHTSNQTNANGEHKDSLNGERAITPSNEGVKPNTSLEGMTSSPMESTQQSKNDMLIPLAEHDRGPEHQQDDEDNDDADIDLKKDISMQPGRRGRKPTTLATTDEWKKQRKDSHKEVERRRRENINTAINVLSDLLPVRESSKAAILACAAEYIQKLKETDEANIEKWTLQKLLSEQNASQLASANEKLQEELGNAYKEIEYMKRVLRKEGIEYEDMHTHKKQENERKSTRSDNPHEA
Method: competition protein-binding microarray
Molecule type: double-stranded DNA, one strand shown
Matrix: in vitro
Tested at: 2 µM
Setting: whole 60-bp probe, lowest competitor level
With: Pho4 competitor, 0.05 µM
Reading: higher = stronger binding
Shared flanks, not repeated: … GTCTTGATTCGCTTGACGCTGCTG
| Sequence | fluorescence intensity [a.u.] |
| --- | --- |
| TTATCTGTTTTAATTGGCGTGGGTAAGTGGGGTAGG | 75 |
| GTAAGTCAAAATCCGCGCGTGACTCGTAAAGCGTTA | 623 |
| TCACGGAAATCTTATCATGTGTCGCCCCATCCAATT | 217 |
| AGACAAAGTTTGGTGGGCGTGGGACGAAGAATTCAG | 67.5 |
| AAGCATATGCTGTTTATCGTGCTAACAAGGCGGTAT | 73.5 |
| TGAAGAAGGGTAAATCTCGTGATGGAAATGTTCCTG | 466 |
| TCAGAAAAGACCATTTGCGTGCTTTTACCATTATGC | 72.5 |
| GATAATTCTGTCCTTCACGTGGTCGAAACCGGTTAT | 1170 |

Sample 2
Target: Replicase polyprotein 1ab, polymerase (rep, Severe acute respiratory syndrome coronavirus 2, UniProt P0DTD1)
Effect on: enzyme activity
Action: inhibitor
Tested at: 20 µM
| Structure (SMILES) | inhibition |
| --- | --- |
| CNCC(=O)c1ccc(O)c(O)c1 | 1.42% |
| O=c1[nH]cnc2nc[nH]c12 | -6.03% |
| CC(C)(C)c1[nH]cnc1/C=c1\[nH]c(=O)/c(=C/c2ccccc2)[nH]c1=O | 17.1% |
| CC1(C)CCC(C)(C)c2cc(C#Cc3ccc(C(=O)O)cc3)ccc21 | 31.2% |
| Cn1cc(-c2cc(Oc3cc(F)c(NC(=O)C4(C(=O)Nc5ccccc5)CC4)cc3F)ccn2)cn1 | -0.21% |
| CSc1ccccc1OCC(O)CNC(C)C (centres unmarked) | -0.4% |
| CC(C)(C)NCC(O)COc1cccc2[nH]c(C#N)cc12 (centres unmarked) | 5.22% |
| C[N+](C)(C)NCCC(=O)[O-] | 4.13% |
| Nc1ccccc1NC(=O)c1ccc(CNc2nccc(-c3cccnc3)n2)cc1 | -1.26% |
| C[C@H]1CN(Cc2ccc(CC(=O)N3CCC(Nc4cccc(F)c4)CC3)cc2)CCN1 | -0.55% |
| NCCCC[C@H](N[C@@H](CCc1ccccc1)C(=O)O)C(=O)N1CCC[C@H]1C(=O)O | 18.2% |
| Cc1cccc(C)c1OCC(=O)N[C@@H](Cc1ccccc1)[C@@H](O)C[C@H](Cc1ccccc1)NC(=O)[C@H](C(C)C)N1CCCNC1=O | 4.7% |
| CN1CCN(CCCN2c3ccccc3Sc3ccc(S(=O)(=O)N(C)C)cc32)CC1 | 2.99% |
| O[C@H]1[C@H](O)[C@@H](O)[C@H](O)[C@@H](O)[C@H]1O | 15.6% |
| C[C@@]1(O)[C@H](O)[C@@H](CO)O[C@H]1n1cnc2c(NC3CCCC3)nc(Cl)nc21 | -0.63% |
| C=CC(=O)Nc1cccc(Oc2nc(Nc3ccc(N4CCN(C)CC4)cc3OC)ncc2Cl)c1 | 0.89% |
| CCCS(=O)(=O)Nc1ccc(F)c(C(=O)c2c[nH]c3ncc(Cl)cc23)c1F | -5.16% |
| CCCCc1nc(Cl)c(CO)n1Cc1ccc(-c2ccccc2-c2nnn[nH]2)cc1 | 2.31% |
| CCCCCCCCCCCCCCCCCCCCCC(=O)Nc1ccn([C@@H]2O[C@H](CO)[C@@H](O)[C@@H]2O)c(=O)n1 | -5.51% |
| Cc1c(C(=O)NC2CCCCC2)sc2nc3ccc(N)cc3n12 | -6.79% |
| [O-][n+]1cccc(CO)c1 | -0.16% |
| CC1=C(/C=C/C(C)=C/C=C/C(C)=C/C=O)C(C)(C)CCC1 | 3.54% |
| COc1ccc(-n2nc(CCC(=O)N(C)O)cc2-c2ccc(Cl)cc2)cc1 | 3.11% |
| CO/N=C(\C(=O)N[C@@H]1C(=O)N2C(C(=O)O)=CCS[C@H]12)c1csc(N)n1 | -3.46% |
| CN1CCC2=C(C1)c1ccccc1Cc1ccccc12 | -2.65% |

Sample 3
Cell line: HEK-293T
Effect on: pseudovirus infection
Method: FDA-approved drug library screen
Organism: VSV pseudotyped with SARS-CoV-2 spike
Tested at: 10 µM
Time: 16 h
Relative to: vehicle-treated
| Compound | GFP-positive cells [%] |
| --- | --- |
| CC[C@H](C)C(=O)O[C@H]1C[C@H](O)C=C2C=C[C@H](C)[C@H](CC[C@@H](O)C[C@@H](O)CC(=O)O)[C@H]21 | 76.4 |
| N[C@@H](C(=O)N[C@@H]1C(=O)N2C(C(=O)O)=C(Cl)CS[C@H]12)c1ccccc1 | 82.2 |
| CCCCNC(=O)NS(=O)(=O)c1ccc(C)cc1 | 73.6 |
| NS(=O)(=O)c1cc2c(cc1Cl)N=C(CSCc1ccccc1)NS2(=O)=O | 92.8 |

Sample 4
Target: Replicase polyprotein 1ab, main protease (rep, Severe acute respiratory syndrome coronavirus 2, UniProt P0DTD1)
Effect on: enzyme activity
Action: inhibitor
Tested at: 20 µM
Setting: hit confirmation
| Structure (SMILES) | inhibition |
| --- | --- |
| O=C(O)c1ccc(N2C(=O)/C(=C/c3ccc(-c4ccc([N+](=O)[O-])cc4)o3)C=C2c2ccccc2)cc1 | 51.1% |
| CC1=NN(c2ccc(C(=O)O)cc2)C(=O)C1=Cc1ccc(-c2cc(C)c(C)cc2[N+](=O)[O-])o1 | 25.3% |
| COc1oc(=O)c2cc(N)ccc2c1Cl | 32.6% |

Sample 5
Target: Sal-like protein 4, full length isoform A (SALL4, Homo sapiens, UniProt Q9UJQ4, residues 1-1053)
Chain of UniProt Q9UJQ4 (whole entry, looked up): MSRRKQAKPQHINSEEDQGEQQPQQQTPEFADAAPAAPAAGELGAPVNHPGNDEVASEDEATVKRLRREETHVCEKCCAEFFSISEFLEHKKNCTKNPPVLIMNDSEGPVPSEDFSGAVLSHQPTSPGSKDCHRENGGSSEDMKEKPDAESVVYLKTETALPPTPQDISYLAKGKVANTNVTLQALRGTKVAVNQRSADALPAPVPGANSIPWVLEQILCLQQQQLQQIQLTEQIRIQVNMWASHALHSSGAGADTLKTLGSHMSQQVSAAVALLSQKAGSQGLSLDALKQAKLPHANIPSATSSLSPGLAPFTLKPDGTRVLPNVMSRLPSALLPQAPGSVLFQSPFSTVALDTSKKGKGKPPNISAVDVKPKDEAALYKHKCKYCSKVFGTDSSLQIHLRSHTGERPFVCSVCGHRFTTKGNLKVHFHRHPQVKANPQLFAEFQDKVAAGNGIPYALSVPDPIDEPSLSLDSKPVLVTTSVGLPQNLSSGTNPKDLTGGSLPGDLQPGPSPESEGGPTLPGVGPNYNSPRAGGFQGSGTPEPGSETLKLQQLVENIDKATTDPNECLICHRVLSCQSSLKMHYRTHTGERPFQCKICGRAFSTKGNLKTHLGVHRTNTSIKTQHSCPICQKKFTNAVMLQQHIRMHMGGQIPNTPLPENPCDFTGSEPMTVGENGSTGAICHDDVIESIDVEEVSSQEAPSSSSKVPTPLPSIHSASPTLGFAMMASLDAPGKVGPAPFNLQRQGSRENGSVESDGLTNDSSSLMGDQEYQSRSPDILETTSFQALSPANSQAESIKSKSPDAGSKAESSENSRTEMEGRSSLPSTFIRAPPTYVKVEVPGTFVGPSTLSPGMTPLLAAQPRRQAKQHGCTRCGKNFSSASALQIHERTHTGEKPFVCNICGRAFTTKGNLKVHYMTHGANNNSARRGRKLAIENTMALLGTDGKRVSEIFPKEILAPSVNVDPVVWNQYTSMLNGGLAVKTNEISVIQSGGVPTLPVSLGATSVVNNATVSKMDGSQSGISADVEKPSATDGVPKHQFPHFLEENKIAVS
Method: universal PBM
Molecule type: double-stranded DNA, one strand shown
Matrix: in vitro
Tested at: 600 nM
Setting: 8-mer, flanks averaged, mean of replicates
Reading: higher = stronger binding
| Sequence | E-score |
| --- | --- |
| AGGATGGG | -0.291 |
| CACTGGTA | 0.0265 |
| GAGTCTAC | 0.0346 |
| CACCATAG | -0.168 |
| CTTCAAAC | -0.0358 |
| AAAGGGCG | -0.183 |
| GGACCAGA | -0.259 |
| CATCGGGA | -0.137 |

Sample 6
Target: Histone acetyltransferase KAT6A, both winged helices, GST fusion (KAT6A, Homo sapiens, UniProt Q92794, residues 1-181)
Method: protein binding microarray
Molecule type: double-stranded DNA, one strand shown
Matrix: in vitro
Tested at: not given
Setting: 8-mer, flanks averaged, mean of 2 arrays, mostly near background
Relative to: not given
Reading: higher = stronger binding
Target sequence (chain): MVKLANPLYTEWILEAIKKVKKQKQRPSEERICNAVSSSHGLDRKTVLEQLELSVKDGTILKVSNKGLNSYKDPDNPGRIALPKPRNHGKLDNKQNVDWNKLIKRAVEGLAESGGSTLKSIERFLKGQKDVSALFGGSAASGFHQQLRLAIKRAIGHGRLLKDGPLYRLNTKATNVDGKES
| Sequence | E-score |
| --- | --- |
| ATGGGATA | -0.168 |
| AAACGTAG | -0.14 |
| AAAAATGG | -0.135 |
| ATGGTACC | -0.0114 |
| AAGCTCAC | -0.0225 |
| AAGCCCCC | -0.163 |
| GAACGCTC | 0.0416 |
| ATCGATTA | -0.05 |

Repeated from above (sample 1):
| Sequence | fluorescence intensity [a.u.] |
| --- | --- |
| TCACGGAAATCTTATCATGTGTCGCCCCATCCAATT | 217 |
| AGACAAAGTTTGGTGGGCGTGGGACGAAGAATTCAG | 67.5 |
| AAGCATATGCTGTTTATCGTGCTAACAAGGCGGTAT | 73.5 |
| TGAAGAAGGGTAAATCTCGTGATGGAAATGTTCCTG | 466 |
| TCAGAAAAGACCATTTGCGTGCTTTTACCATTATGC | 72.5 |
| GATAATTCTGTCCTTCACGTGGTCGAAACCGGTTAT | 1170 |
